Assay results from different studies.
Every numbered part comes from another study and shows a few of its results, in no order.
Sequence of UniProt Q9Y6M4 (whole entry, looked up): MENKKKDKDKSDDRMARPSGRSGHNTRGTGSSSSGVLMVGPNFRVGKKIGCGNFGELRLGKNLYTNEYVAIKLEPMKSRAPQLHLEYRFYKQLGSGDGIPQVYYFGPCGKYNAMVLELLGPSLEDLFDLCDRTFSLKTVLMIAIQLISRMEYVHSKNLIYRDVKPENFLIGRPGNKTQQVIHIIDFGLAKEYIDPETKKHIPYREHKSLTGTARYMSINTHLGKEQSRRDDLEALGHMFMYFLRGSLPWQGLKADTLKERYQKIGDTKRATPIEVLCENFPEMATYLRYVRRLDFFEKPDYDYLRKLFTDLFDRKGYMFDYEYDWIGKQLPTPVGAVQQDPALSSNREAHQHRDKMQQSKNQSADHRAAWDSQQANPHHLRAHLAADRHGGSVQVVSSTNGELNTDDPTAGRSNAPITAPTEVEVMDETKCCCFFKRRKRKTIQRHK
Sequence of UniProt P15056 (whole entry, unmodified, looked up): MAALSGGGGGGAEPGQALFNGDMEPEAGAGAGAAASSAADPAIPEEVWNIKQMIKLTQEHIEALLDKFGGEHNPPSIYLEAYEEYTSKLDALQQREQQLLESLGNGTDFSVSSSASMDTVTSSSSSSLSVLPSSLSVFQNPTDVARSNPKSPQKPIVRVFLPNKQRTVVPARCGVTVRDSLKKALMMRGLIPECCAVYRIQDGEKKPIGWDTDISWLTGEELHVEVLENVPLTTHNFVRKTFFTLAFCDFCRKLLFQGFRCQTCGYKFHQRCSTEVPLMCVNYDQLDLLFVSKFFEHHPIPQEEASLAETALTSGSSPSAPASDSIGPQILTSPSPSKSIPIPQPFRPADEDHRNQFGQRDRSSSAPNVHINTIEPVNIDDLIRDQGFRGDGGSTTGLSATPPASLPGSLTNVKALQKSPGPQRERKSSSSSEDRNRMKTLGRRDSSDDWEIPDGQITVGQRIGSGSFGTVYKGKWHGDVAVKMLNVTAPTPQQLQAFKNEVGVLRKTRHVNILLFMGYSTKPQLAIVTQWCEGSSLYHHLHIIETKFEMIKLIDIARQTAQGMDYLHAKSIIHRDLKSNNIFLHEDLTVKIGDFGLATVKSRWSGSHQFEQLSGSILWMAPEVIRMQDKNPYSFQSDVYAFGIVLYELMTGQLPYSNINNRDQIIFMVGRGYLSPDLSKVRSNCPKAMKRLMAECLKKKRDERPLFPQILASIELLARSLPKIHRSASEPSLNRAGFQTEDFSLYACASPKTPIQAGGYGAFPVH
Sequence of UniProt Q32MK0 (whole entry, looked up): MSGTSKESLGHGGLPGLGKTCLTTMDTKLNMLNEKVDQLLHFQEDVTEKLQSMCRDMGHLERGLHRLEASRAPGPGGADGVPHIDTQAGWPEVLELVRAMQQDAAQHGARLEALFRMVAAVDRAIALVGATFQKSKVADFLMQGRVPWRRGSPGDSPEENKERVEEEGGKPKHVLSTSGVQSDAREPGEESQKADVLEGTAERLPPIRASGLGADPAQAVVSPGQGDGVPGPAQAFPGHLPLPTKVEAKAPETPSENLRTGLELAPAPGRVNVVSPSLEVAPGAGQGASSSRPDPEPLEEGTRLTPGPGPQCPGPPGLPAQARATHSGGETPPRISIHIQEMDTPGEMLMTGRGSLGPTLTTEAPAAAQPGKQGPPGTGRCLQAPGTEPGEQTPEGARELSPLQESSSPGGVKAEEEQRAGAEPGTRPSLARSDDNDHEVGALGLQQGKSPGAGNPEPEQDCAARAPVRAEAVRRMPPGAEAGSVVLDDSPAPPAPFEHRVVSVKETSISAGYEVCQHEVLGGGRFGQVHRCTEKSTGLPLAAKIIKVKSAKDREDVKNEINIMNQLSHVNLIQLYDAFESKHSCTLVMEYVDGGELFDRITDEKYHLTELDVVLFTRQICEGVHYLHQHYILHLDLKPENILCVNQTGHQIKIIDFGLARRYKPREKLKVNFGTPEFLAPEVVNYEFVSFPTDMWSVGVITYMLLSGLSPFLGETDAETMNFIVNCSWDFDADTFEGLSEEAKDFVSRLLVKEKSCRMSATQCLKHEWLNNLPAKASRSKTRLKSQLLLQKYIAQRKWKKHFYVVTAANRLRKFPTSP
Sequence of UniProt Q16620 (whole entry, looked up): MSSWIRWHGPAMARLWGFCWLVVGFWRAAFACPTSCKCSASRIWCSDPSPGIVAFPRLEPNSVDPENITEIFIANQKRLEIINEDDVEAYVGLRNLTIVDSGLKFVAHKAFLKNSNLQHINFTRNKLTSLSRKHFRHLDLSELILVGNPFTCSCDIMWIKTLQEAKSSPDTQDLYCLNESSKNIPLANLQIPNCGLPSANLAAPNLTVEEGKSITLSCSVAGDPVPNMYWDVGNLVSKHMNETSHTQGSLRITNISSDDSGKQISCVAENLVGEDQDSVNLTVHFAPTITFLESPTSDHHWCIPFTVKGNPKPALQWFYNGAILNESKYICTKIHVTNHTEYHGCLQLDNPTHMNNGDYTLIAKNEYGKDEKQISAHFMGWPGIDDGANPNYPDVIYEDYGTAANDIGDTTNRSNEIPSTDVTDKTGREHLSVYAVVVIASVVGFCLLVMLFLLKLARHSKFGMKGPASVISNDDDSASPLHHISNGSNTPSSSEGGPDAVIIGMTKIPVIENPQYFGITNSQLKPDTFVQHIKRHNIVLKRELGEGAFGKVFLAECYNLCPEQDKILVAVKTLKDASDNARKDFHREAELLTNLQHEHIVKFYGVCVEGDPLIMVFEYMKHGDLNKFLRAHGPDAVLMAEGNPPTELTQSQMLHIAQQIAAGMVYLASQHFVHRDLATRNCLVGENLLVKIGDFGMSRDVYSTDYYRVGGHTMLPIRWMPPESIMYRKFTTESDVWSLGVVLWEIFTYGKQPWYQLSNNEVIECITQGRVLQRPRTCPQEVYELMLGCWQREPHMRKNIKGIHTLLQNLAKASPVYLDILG
Sequence of UniProt Q9HC98 (whole entry, looked up): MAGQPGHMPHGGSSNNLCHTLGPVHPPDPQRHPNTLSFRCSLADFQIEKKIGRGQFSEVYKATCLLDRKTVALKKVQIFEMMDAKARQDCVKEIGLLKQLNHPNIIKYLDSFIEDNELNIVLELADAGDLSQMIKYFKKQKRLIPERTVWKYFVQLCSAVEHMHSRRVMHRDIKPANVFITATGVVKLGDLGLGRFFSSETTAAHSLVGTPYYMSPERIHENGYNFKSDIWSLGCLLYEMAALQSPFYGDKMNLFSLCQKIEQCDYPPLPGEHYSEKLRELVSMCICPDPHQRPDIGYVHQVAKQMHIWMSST
Sequence of UniProt Q8TD19 (whole entry, looked up): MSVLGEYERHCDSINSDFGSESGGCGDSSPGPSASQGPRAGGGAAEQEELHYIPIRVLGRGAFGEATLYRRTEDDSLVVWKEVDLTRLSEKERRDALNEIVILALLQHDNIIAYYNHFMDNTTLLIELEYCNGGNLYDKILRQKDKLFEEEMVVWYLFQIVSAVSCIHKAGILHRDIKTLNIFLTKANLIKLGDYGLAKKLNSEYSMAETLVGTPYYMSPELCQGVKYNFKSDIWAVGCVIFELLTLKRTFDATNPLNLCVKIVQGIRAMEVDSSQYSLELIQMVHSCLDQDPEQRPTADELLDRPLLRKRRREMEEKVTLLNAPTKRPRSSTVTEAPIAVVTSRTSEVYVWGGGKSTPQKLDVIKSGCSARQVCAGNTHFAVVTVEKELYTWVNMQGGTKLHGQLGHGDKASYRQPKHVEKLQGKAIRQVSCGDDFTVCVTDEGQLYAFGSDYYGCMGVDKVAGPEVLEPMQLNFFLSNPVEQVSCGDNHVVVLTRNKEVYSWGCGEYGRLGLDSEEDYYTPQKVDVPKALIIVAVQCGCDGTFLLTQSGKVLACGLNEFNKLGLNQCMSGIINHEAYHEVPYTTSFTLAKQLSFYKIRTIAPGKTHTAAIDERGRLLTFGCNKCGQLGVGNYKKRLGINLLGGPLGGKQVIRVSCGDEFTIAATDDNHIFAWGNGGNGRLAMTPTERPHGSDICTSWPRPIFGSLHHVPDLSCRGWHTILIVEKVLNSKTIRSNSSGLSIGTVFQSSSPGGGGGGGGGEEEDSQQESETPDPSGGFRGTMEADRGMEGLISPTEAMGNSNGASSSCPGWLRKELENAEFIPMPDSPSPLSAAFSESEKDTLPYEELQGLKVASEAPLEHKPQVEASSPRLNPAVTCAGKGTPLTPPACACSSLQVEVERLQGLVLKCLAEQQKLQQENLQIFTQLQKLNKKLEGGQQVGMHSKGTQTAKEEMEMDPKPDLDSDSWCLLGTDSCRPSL
Sequence of UniProt Q07002 (whole entry, looked up): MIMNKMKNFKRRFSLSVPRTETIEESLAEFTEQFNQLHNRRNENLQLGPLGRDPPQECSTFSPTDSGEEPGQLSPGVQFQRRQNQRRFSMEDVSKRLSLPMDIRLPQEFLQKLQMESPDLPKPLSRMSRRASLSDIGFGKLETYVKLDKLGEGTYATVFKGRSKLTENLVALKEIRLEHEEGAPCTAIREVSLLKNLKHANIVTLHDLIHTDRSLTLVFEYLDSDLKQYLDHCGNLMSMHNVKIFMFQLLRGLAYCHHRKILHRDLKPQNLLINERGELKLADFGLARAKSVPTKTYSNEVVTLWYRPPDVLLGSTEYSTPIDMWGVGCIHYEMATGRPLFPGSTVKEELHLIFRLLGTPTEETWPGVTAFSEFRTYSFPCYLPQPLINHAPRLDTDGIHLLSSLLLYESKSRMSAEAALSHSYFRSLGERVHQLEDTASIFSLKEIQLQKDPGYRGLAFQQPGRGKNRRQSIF
Sequence of UniProt P49841 (whole entry, looked up): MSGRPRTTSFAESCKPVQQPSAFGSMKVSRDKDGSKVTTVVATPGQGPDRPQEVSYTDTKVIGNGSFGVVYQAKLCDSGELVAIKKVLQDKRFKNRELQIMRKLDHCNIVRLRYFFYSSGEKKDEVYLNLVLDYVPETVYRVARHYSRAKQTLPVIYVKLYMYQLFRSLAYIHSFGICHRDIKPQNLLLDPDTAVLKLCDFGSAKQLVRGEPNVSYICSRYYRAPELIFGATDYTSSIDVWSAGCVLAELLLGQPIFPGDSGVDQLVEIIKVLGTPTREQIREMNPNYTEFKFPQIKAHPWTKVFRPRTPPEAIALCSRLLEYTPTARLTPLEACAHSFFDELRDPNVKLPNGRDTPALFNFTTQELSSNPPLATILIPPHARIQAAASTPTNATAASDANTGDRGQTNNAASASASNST

Block 1 — technique: DNA-protein interaction ELISA; molecule type: double-stranded DNA, one strand shown; medium: in vitro, bacterial lysate; concentration: not given; setting: whole dsDNA probe, crude lysate protein; relative to: highest signal in screen; reading: higher = stronger binding; measurement: relative absorbance
Target: Probable WRKY transcription factor 11, DNA-binding domain (WRKY11, Arabidopsis thaliana, UniProt Q9SV15, residues 228-325)
Residues (chain): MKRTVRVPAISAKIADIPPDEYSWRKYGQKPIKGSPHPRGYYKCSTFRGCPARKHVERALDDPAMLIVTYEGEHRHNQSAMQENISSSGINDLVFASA
AAAAAATATCCTATTCTAATTTATATAAAA: 13.5 % of maximum
AAAAAAATGATTTGCAGATCTCCGAGAAAA: 17 % of maximum
AAAAAAAGTGGCCGCTAGTCAACTCAAAAA: 91.9 % of maximum
AAAAAAATCCATATTATTGCTACCCGAAAA: 15.8 % of maximum
AAAAAATTACGTTTGTATTTGTAAAA: 14.7 % of maximum
AAAAAAATTGTATCATACTTCAGTTGAAAA: 16.1 % of maximum
AAAAAATTCGTTTTTCGTCTTTCATTAAAA: 17 % of maximum
AAAAAATACTCTTCCTCGTTCTTGGTAAAA: 13.8 % of maximum

Block 2 — read-out: cell-free assay; technique: competition with immobilised ligand; concentration: 1 µM; measurement: remaining binding
SMILES: O=C(N1CCS(=O)(=O)CC1)N1C[C@H](c2ccc(OC(F)(F)F)cc2)C[C@H](c2nc(C3CC3)no2)C1
GRK2 (Homo sapiens, UniProt P25098): 66%
NEK9 (Homo sapiens, UniProt Q8TD19): 100%
EGFR (Homo sapiens, UniProt P00533): 100%
TAOK3 (Homo sapiens, UniProt Q9H2K8): 100%
TGFBR1 (Homo sapiens, UniProt P36897): 100%
Non-receptor tyrosine-protein kinase TYK2, JH2 (TYK2, Homo sapiens, UniProt P29597): 94%
CDK18 (Homo sapiens, UniProt Q07002): 0%
NLK (Homo sapiens, UniProt Q9UBE8): 100%
MYLK4 (Homo sapiens, UniProt Q86YV6): 100%
RET (Homo sapiens, UniProt P07949, V804M): 100%
INSRR (Homo sapiens, UniProt P14616): 97%
NTRK2 (Homo sapiens, UniProt Q16620): 94%
STK17B (Homo sapiens, UniProt O94768): 100%
Ribosomal protein S6 kinase alpha-5, C-terminal kinase domain (RPS6KA5, Homo sapiens, UniProt O75582): 100%
BRAF (Homo sapiens, UniProt P15056, V600E): 100%
CSNK1A1L (Homo sapiens, UniProt Q8N752): 100%
MYLK3 (Homo sapiens, UniProt Q32MK0): 79%
PIK3C2B (Homo sapiens, UniProt O00750): 100%
CSNK1G3 (Homo sapiens, UniProt Q9Y6M4): 100%
PKMYT1 (Homo sapiens, UniProt Q99640): 100%
PDPK1 (Homo sapiens, UniProt O15530): 94%

Block 3 — technique: RNA Bind-n-Seq; molecule type: RNA; medium: in vitro; concentration: 365 nM; relative to: no-protein control; reading: higher = stronger binding; measurement: RBNS enrichment (R)
Target: RNA binding protein fox-1 homolog 2, RRM domain, GST-SBP tag (RBFOX2, Homo sapiens, UniProt O43251-10, residues 100-194)
Setting: natural RNA segment, single round, ends assumed
Constant ends, left off below: GGGAGUUCUACAGUCCGACGAUC … UGGAAUUCUCGGGUGCCAA
Construct (chain): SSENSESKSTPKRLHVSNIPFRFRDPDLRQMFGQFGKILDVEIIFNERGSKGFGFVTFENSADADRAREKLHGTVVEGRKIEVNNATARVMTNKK
GGGGAUUAGGCUCUUUUAGGUAACUGGCUUUCCUGCUGGUCCGUGCGGGAAAUUCAGUCUUGAUUUAACCUUAAUUUUACAGCCCUUGGCUUGUGUUAUCGGACAUUCUA: 0.576
CCUGACCUCGUGAUCCGCCCGCCUUGGCCUCCCAAGGUGCUGGGAUUACAAGCGUGAGCCACCGCACCCGGCCUGAAAAUAUUUUCUAAAAAGAUAAAAAAUAUACAUAA: 0.333
AGCAGAGGUUUACAGUAAUUACCAACACCCUACACAAGUAAUGUGCCUAUGCCAGCUAAAAGUUUUUCCUGUUACUGCUGUGUUCUUCUUGCUAGAGAAAACAUAUAUUA: 0.304
GUGUAUAAUUGGAGUAGAUAUUAAUUAAGUCACCUGUAUAAUGUUUUGUAAUUUUGCAAAACAUAUCUUGAGUUGUUUAAACAGUCAAAAUGUUUGAUAUUUUAUACCAG: 0.532
GUUUAUCUAGCAAACGUGACAAUAUUUUUAUGUAUAUAAUGAUUCUAAUCUAAGUUAAUUAAUGUGGUAAUGAUGUUAUUAAGUGUGGAAGCAAAUGCAGUAUAUUAAAG: 0.542
CCCAGCUUCCAUCUCAGGAGACCAGAACUCAUGGAAAAAUUAGGCACUUUUGGCUAAAAGUGCGAAUGGAACAUUUUUAGUUGUAGUCUGGGGAAGAAAAGUUAAUGAGG: 1.13
CUCCUUGGGAUGAAGAAAUUUCUCUUUCCCUGUCAUGAGUGUCCAGCCAGGGAGCAGGGAGGCAGUGUCAGGGAGGGACUCUCAUCCUGGAGGAAAUGGGAUUCCAAGUC: 0.328
AAAAUCUAAAGAUUUUUUCACUUUCUUUGUAUUAUUAUAUAUGAGUAACUUUUGAUACCAGAAUAAAUCUUUCGUGUUUGUCACUAAAGCAUCGGAGUCUCGCUAGUUUC: 0.852

Block 4 — read-out: enzyme activity; mode: inhibitor; concentration: 0.5 µM; relative to: control; measurement: remaining activity
SMILES: CCOC(=O)c1c(C)[nH]c(/C=C2\C(=O)Nc3ccccc32)c1C
ULK3 (Homo sapiens, UniProt Q6PHR2): 76.7%
TBK1 (Homo sapiens, UniProt Q9UHD2): 70.5%
MAP3K14 (Homo sapiens, UniProt Q99558): 118%
NEK6 (Homo sapiens, UniProt Q9HC98): 98.1%
CSNK1G2 (Homo sapiens, UniProt P78368): 84.8%
CSNK1G3 (Homo sapiens, UniProt Q9Y6M4): 97.9%
MAPKAPK2 (Homo sapiens, UniProt P49137): 98.6%
GSK3B (Homo sapiens, UniProt P49841): 105%
ARAF (Homo sapiens, UniProt P10398): 94.7%

For quick reference, copied from above (block 2):
PKMYT1 (Homo sapiens, UniProt Q99640): 100%
Non-receptor tyrosine-protein kinase TYK2, JH2 (TYK2, Homo sapiens, UniProt P29597): 94%
RET (Homo sapiens, UniProt P07949, V804M): 100%
BRAF (Homo sapiens, UniProt P15056, V600E): 100%
INSRR (Homo sapiens, UniProt P14616): 97%
NLK (Homo sapiens, UniProt Q9UBE8): 100%
